Results of several laboratories.
Numbered parts are unrelated; each lists some results of a single study.
Chain of UniProt P42336 (whole entry, unmodified, looked up): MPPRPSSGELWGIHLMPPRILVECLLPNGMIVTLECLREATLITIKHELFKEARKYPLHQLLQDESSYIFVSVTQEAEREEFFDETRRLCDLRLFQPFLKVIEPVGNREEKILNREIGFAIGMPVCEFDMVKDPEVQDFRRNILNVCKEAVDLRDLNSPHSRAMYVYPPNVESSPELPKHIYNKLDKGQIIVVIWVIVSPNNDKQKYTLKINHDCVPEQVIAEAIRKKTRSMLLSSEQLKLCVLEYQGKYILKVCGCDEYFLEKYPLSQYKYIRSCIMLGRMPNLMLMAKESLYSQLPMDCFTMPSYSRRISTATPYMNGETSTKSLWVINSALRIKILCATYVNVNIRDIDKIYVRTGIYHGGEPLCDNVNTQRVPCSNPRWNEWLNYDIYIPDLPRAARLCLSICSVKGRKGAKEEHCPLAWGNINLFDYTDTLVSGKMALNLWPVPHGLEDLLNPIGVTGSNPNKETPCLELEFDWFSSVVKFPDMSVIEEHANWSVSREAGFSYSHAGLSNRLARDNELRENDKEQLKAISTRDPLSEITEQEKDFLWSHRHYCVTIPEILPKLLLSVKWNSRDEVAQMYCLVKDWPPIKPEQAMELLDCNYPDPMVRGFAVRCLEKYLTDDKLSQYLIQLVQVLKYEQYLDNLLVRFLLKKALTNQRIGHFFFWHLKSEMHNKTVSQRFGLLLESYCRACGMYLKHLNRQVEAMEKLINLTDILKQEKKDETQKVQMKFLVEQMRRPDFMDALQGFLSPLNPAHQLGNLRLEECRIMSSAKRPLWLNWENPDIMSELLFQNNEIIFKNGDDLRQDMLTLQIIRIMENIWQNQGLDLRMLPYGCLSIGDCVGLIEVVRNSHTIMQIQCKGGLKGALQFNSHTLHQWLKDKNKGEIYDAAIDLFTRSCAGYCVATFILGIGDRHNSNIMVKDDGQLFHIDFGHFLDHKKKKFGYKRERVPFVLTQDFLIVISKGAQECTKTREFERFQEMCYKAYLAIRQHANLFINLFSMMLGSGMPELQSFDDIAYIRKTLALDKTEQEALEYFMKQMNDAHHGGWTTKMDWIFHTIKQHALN
Chain of UniProt P06241 (whole entry, looked up): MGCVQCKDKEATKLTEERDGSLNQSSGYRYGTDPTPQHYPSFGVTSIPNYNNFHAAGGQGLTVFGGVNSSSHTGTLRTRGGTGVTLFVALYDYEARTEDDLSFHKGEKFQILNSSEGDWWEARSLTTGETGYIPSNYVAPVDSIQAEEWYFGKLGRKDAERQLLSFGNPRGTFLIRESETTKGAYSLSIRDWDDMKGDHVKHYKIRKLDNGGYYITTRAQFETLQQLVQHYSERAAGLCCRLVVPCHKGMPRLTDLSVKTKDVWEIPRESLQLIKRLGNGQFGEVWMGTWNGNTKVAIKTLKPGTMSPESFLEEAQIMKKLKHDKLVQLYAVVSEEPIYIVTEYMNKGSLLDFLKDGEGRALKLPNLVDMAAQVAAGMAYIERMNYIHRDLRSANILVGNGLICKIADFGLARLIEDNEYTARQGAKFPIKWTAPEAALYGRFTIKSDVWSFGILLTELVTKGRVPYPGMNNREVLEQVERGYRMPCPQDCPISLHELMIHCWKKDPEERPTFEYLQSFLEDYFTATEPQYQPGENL
Chain of UniProt Q13464 (whole entry, looked up): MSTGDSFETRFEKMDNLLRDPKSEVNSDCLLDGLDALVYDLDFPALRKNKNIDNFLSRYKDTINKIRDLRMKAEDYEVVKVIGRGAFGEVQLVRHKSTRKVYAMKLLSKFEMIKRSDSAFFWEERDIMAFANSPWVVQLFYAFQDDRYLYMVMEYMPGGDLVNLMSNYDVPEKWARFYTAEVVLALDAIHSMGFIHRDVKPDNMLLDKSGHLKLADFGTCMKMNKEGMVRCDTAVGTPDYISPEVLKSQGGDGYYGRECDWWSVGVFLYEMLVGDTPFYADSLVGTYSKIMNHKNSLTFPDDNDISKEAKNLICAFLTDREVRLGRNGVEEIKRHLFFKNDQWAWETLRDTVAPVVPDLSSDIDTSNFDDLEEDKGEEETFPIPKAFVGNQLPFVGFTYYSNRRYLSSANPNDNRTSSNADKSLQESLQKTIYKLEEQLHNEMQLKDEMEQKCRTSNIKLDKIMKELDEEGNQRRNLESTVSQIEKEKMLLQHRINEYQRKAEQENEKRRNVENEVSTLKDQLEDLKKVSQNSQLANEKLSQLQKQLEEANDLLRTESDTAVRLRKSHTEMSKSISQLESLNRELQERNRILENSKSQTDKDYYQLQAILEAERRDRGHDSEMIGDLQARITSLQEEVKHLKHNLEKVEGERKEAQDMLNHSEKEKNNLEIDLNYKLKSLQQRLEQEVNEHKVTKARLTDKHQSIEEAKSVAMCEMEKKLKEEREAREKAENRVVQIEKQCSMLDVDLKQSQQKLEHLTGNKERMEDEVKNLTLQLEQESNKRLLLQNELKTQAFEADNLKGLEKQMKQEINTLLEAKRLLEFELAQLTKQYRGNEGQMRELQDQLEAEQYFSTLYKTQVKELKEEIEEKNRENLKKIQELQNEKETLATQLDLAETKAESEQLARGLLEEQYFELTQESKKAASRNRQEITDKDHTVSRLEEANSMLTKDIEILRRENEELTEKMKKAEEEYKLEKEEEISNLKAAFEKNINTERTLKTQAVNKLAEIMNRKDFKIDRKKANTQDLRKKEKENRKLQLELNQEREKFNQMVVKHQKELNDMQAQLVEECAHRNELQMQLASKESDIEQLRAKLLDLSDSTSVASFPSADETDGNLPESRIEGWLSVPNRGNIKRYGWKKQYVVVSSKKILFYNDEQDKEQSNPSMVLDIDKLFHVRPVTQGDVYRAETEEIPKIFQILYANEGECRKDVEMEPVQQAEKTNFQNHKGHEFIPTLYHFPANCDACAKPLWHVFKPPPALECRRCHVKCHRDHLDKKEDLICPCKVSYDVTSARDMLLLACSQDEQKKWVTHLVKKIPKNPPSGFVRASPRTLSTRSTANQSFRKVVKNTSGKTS
Chain of UniProt Q6P2M8 (whole entry, looked up): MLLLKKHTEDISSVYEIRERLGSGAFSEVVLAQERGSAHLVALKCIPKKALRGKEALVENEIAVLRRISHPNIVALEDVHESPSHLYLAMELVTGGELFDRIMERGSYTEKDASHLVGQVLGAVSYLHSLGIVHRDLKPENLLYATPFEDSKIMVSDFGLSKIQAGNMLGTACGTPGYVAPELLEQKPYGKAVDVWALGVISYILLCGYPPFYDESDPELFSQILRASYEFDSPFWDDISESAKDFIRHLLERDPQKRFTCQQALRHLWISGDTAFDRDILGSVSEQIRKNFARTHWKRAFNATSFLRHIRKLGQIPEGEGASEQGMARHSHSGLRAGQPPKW
Chain of UniProt Q15759 (whole entry, looked up): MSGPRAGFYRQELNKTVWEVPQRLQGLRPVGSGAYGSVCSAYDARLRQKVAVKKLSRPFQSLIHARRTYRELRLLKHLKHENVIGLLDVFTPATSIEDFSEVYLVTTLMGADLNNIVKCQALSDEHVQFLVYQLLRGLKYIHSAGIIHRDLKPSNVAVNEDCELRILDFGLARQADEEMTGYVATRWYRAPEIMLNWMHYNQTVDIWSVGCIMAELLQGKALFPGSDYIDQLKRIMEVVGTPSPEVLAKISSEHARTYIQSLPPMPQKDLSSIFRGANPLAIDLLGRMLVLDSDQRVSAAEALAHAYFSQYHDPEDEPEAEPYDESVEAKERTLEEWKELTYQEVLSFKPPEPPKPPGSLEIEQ
Chain of UniProt P28482 (whole entry, looked up): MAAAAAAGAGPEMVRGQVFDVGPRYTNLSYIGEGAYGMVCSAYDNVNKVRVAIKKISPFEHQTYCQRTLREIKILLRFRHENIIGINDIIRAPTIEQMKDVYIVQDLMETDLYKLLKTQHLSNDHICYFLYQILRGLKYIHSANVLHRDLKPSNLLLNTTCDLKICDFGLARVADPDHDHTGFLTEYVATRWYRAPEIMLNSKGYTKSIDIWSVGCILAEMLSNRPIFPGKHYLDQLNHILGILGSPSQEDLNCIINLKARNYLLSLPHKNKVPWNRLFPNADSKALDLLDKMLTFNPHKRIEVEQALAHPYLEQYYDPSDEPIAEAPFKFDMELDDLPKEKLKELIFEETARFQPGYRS
Chain of UniProt P31751 (whole entry, looked up): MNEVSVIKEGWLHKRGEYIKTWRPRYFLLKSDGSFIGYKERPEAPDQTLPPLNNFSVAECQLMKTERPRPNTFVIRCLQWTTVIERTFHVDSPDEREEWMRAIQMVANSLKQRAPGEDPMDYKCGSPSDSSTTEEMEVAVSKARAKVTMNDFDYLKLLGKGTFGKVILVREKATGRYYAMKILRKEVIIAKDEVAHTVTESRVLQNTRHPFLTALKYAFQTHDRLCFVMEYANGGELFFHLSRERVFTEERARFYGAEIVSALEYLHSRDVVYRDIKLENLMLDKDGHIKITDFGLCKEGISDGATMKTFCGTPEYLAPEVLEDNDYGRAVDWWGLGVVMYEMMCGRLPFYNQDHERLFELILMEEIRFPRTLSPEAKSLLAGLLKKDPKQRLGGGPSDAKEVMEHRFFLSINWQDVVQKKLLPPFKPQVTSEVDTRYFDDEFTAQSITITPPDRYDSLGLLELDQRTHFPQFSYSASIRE
Chain of UniProt Q02750 (whole entry, looked up): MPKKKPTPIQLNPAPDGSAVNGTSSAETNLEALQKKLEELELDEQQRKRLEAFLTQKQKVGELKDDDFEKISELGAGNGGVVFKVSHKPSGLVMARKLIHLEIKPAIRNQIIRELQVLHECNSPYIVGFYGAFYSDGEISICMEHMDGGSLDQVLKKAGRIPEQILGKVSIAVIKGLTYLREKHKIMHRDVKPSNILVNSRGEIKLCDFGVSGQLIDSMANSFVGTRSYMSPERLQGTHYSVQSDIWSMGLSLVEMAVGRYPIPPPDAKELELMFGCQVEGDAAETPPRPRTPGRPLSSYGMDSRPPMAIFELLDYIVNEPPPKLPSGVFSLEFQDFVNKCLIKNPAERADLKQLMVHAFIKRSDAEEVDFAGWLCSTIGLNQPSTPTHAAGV

Series 1
Host: mouse
Medium: microsomes or S9
Concentration: 2 µM
Time: 0.5 h
Endpoint: remaining compound
SMILES = O=C1C=C(N(Cc2ccc(Cl)nc2)C2COC2)CO1; value = 46.9%
SMILES = CCN(CC)S(=O)(=O)c1ccc(OC)c(NC(=O)CCCOc2ccc(Cl)c(C)c2)c1; value = 2.34%
SMILES = CC(C)Cc1cc(C(=O)O)c(S(=O)(=O)NC(C)(C)C)s1; value = 96.4%
SMILES = Cc1oc(C)c(C(=O)Nc2nnc(C)n2C)c1Br; value = 46.5%
SMILES = COc1ccc(-c2n[nH]c(-c3ccccn3)n2)cc1; value = 4.5%

Series 2
Cell line: HaCaT
Concentration: 100 µM
Time: 18 h
Endpoint: viability
Structure (SMILES) = O=C(Nc1ncc([N+](=O)[O-])s1)c1ccccc1O; value = 35.1%
Structure (SMILES) = COc1ccc2[nH]c([S+]([O-])Cc3ncc(C)c(OC)c3C)nc2c1 (stereo not shown); value = 93%
Structure (SMILES) = CCC[C@H](N[C@@H](C)C(=O)N1[C@H](C(=O)O)C[C@@H]2CCCC[C@@H]21)C(=O)OCC; value = 111%
Structure (SMILES) = c1cc(CN2CCCNCCNCCCNCC2)ccc1CN1CCCNCCNCCCNCC1; value = 112%
Structure (SMILES) = CC(=O)OCC(=O)[C@@]12OC3(CCCC3)O[C@@H]1C[C@H]1[C@@H]3CCC4=CC(=O)C=C[C@]4(C)[C@@]3(F)[C@@H](O)C[C@@]12C; value = 42.5%
Structure (SMILES) = O=C(N[C@H](CO)[C@H](O)c1ccc([N+](=O)[O-])cc1)C(Cl)Cl; value = 118%

Series 3
SMILES: O=c1cc(N2CCOCC2)oc2c1ccc1ccccc12
Effect on: enzyme activity
Mode: inhibitor
Concentration: 0.5 µM
Reference: control
Endpoint: remaining activity
target = MAPK14 (Homo sapiens, UniProt Q16539); value = 96.7%
target = MAP2K1 (Homo sapiens, UniProt Q02750); value = 99.3%
target = DCLK2 (Homo sapiens, UniProt Q8N568); value = 100%
target = MAPK1 (Homo sapiens, UniProt P28482); value = 104%
target = MAPK11 (Homo sapiens, UniProt Q15759); value = 97.9%
target = CLK4 (Homo sapiens, UniProt Q9HAZ1); value = 101%
target = ROCK1 (Homo sapiens, UniProt Q13464); value = 94.2%
target = AKT2 (Homo sapiens, UniProt P31751); value = 98.9%
target = GRK4 (Homo sapiens, UniProt P32298); value = 104%
target = Cyclin-dependent kinase 9, with cyclin K (CDK9, Homo sapiens, UniProt P50750); value = 99.9%
target = CDC42BPB (Homo sapiens, UniProt Q9Y5S2); value = 98.3%
target = PNCK (Homo sapiens, UniProt Q6P2M8); value = 97.4%
target = Cyclin-dependent kinase 1, with cyclin A (CDK1, Homo sapiens, UniProt P06493); value = 103%

Series 4
Structure (SMILES): c1ccc(N2CCN(Cc3nc4ccccc4[nH]3)CC2)nc1
Technique: competition with immobilised ligand
Concentration: 1 µM
Endpoint: remaining binding
target = PIK3CA (Homo sapiens, UniProt P42336, E545A); effect on = cell-free assay; value = 87%
target = ALK (Homo sapiens, UniProt Q9UM73); effect on = cell-free assay; value = 91%
target = PIKFYVE (Homo sapiens, UniProt Q9Y2I7); effect on = binding; value = 100%
target = FYN (Homo sapiens, UniProt P06241); effect on = binding; value = 100%
target = HUNK (Homo sapiens, UniProt P57058); effect on = binding; value = 100%
target = PIK3CA (Homo sapiens, UniProt P42336, E545K); effect on = cell-free assay; value = 59%

Other studies, line by line
SMILES = CN(C(=O)c1ccn2ncc(-c3ccc(C(N)=O)cc3)c2c1)c1ccc(C#N)cn1; organism = Cryptosporidium parvum; technique = time-kill, one-phase decay fit; strain = nanoluciferase-expressing; concentration = 0.247 µM; endpoint = half-life of parasite killing; value = 19.5 h

A few entries again (series 3):
target = CDC42BPB (Homo sapiens, UniProt Q9Y5S2); value = 98.3%
target = PNCK (Homo sapiens, UniProt Q6P2M8); value = 97.4%
target = Cyclin-dependent kinase 1, with cyclin A (CDK1, Homo sapiens, UniProt P06493); value = 103%
